Assay results from different studies.
Numbered parts are unrelated; each lists some results of a single study.
Chain of UniProt P51956 (whole entry, looked up): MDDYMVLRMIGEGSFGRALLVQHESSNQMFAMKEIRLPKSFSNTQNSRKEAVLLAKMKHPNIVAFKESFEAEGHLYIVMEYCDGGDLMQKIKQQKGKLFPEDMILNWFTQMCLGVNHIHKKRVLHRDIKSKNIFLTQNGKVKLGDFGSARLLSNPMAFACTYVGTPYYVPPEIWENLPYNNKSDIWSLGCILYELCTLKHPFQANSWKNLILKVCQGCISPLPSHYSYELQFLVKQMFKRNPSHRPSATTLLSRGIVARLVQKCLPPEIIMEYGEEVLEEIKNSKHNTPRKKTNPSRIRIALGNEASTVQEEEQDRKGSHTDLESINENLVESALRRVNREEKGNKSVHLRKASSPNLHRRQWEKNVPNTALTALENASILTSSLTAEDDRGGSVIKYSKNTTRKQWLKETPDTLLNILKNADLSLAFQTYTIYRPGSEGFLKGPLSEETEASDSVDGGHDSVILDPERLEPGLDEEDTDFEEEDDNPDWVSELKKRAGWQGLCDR
Chain of UniProt P45984 (whole entry, looked up): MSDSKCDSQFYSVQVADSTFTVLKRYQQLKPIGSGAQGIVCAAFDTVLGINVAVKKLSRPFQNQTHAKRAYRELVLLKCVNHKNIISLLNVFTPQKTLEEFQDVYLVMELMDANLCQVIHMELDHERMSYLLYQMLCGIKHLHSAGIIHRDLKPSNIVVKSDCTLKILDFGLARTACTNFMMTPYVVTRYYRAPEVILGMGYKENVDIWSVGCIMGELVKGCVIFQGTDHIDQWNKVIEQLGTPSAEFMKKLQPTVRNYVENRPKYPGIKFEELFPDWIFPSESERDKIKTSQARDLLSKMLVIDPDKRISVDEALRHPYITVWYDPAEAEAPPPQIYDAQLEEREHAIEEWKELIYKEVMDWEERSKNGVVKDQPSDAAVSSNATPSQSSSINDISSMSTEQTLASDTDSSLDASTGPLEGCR
Chain of UniProt Q13546 (whole entry, looked up): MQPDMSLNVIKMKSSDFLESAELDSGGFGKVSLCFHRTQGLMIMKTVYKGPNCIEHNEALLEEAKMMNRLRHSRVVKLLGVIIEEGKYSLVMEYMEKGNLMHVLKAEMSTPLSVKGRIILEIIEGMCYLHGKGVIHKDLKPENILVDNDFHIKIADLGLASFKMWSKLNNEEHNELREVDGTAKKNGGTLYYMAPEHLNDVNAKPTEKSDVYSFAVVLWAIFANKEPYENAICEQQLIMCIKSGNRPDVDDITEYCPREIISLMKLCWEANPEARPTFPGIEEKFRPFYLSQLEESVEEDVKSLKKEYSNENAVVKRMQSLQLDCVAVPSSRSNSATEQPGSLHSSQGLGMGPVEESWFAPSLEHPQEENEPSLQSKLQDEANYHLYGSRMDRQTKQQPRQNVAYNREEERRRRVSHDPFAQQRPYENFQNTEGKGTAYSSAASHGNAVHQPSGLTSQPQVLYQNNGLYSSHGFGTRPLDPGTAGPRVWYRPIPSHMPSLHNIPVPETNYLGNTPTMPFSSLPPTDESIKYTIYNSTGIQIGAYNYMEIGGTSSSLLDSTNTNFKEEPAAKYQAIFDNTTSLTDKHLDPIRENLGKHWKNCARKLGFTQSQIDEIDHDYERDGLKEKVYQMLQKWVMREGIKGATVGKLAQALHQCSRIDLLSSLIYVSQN
Chain of UniProt Q9Y2I7 (whole entry, looked up): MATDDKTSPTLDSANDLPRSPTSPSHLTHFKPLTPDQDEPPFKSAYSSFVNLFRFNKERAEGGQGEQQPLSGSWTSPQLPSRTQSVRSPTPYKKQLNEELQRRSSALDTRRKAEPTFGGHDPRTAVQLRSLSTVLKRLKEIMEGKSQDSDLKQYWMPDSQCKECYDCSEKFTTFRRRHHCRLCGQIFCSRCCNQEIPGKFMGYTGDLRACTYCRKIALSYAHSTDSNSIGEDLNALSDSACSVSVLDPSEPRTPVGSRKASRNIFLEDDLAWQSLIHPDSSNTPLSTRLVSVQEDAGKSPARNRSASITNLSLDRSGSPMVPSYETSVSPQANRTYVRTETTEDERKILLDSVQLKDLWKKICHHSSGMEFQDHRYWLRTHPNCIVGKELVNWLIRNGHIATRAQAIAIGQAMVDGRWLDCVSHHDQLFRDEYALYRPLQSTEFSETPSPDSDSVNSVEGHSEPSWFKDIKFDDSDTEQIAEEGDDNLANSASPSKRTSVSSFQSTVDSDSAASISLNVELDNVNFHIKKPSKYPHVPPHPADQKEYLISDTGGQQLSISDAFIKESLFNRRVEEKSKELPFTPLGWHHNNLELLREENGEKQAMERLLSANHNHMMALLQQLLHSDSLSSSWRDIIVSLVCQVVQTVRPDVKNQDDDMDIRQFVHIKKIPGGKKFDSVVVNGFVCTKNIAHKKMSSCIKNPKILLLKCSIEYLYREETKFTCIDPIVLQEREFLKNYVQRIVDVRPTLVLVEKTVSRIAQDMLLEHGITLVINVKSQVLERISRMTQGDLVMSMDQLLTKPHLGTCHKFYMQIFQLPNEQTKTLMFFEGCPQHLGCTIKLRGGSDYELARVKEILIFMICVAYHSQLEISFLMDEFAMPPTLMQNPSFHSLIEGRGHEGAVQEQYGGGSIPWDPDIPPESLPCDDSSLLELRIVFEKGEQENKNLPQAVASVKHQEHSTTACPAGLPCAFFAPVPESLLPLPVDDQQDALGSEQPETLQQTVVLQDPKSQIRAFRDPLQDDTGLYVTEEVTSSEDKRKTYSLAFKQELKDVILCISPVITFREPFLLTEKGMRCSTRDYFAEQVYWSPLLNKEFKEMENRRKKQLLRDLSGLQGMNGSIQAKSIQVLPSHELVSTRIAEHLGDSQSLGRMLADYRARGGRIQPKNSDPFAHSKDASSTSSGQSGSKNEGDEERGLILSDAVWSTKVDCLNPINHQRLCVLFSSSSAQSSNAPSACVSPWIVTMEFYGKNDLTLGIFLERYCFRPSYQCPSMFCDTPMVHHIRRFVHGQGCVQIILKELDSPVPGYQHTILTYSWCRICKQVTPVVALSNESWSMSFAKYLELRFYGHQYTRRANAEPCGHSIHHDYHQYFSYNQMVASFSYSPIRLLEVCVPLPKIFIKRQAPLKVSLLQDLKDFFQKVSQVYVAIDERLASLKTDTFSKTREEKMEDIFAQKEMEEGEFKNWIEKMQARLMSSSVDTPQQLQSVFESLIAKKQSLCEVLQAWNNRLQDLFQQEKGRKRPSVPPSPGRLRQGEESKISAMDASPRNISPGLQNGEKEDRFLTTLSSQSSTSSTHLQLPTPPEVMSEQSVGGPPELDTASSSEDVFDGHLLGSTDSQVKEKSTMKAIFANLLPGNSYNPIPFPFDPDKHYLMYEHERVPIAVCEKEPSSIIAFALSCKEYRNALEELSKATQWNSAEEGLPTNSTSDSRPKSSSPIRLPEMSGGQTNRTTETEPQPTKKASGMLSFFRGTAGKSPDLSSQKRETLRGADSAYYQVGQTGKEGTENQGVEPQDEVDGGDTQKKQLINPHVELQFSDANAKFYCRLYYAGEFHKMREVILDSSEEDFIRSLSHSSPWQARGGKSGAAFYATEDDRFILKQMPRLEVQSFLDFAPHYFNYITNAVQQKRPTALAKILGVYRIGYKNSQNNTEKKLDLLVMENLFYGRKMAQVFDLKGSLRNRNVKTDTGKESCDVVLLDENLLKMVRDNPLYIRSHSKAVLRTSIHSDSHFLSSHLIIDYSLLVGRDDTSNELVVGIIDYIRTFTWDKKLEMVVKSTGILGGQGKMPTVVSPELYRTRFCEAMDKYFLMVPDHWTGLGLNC
Chain of UniProt O75914 (whole entry, looked up): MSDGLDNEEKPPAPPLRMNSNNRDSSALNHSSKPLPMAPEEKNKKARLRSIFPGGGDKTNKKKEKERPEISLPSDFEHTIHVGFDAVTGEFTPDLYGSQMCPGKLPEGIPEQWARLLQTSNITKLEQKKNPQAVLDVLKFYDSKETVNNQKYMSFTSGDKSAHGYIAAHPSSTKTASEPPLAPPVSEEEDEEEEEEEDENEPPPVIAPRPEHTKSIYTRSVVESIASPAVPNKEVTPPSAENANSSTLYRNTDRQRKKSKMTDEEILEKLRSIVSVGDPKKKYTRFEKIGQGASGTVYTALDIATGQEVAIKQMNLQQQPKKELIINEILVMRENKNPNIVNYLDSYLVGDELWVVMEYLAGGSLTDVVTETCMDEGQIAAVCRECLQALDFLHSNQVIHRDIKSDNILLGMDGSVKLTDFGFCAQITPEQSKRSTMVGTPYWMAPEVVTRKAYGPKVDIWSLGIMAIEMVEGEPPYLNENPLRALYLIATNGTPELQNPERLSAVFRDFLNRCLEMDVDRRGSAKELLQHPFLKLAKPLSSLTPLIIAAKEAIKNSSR
Chain of UniProt Q9HCP0 (whole entry, looked up): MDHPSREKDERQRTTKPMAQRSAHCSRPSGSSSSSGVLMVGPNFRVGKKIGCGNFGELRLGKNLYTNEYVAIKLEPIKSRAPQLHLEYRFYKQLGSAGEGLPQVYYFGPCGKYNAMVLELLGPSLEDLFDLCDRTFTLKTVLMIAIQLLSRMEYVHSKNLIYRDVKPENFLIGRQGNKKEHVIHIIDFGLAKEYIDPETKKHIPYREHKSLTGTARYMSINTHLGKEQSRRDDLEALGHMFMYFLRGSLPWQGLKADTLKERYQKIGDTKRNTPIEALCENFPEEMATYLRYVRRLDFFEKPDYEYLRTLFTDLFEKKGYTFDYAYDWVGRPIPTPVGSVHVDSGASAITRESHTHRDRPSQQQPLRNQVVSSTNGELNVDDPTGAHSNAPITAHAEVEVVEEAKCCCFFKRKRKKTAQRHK
Chain of UniProt P48729 (whole entry, looked up): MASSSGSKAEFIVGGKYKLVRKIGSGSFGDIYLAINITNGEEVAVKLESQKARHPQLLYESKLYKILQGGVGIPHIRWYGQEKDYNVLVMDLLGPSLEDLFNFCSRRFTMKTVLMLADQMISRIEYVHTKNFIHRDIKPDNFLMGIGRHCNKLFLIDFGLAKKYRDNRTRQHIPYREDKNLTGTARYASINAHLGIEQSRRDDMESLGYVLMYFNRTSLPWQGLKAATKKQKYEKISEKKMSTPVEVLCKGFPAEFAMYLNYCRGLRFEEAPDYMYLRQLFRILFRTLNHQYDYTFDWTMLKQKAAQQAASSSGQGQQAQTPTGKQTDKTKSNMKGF

Study 1
Structure (SMILES): CCOCCn1cc(C(=O)Nc2ccc(-n3nc(-c4cccnc4)cc3C(F)(F)F)cn2)ccc1=O
Effect on: cell-free assay
Method: competition with immobilised ligand
Concentration: 1 µM
The remaining binding was 47% (NLK (Homo sapiens, UniProt Q9UBE8)).
The remaining binding was 100% (EGFR (Homo sapiens, UniProt P00533, G719S)).
Ribosomal protein S6 kinase alpha-2, C-terminal kinase domain (RPS6KA2, Homo sapiens, UniProt Q15349) — remaining binding: 89%.
The remaining binding was 100% (Tyrosine-protein kinase ABL1, phosphorylated (ABL1, Homo sapiens, UniProt P00519, M351T)).
RIPK1 (Homo sapiens, UniProt Q13546) — remaining binding: 88%.
The remaining binding was 74% (CSNK1A1 (Homo sapiens, UniProt P48729)).
The remaining binding was 100% (STK3 (Homo sapiens, UniProt Q13188)).
It gave 78% for remaining binding (SBK3 (Homo sapiens, UniProt P0C264)).
For PIKFYVE (Homo sapiens, UniProt Q9Y2I7): remaining binding read 97%.
NEK11 (Homo sapiens, UniProt Q8NG66) — remaining binding: 96%.
MAP3K14 (Homo sapiens, UniProt Q99558) — remaining binding: 69%.
The remaining binding was 100% (EPHB1 (Homo sapiens, UniProt P54762)).
It gave 100% for remaining binding (HIPK2 (Homo sapiens, UniProt Q9H2X6)).
For PRKCD (Homo sapiens, UniProt Q05655): remaining binding read 100%.
It gave 90% for remaining binding (HIPK1 (Homo sapiens, UniProt Q86Z02)).
The remaining binding was 95% (AKT1 (Homo sapiens, UniProt P31749)).
It gave 81% for remaining binding (TNK2 (Homo sapiens, UniProt Q07912)).
STK4 (Homo sapiens, UniProt Q13043) — remaining binding: 100%.
For CIT (Homo sapiens, UniProt O14578): remaining binding read 97%.
The remaining binding was 100% (Tyrosine-protein kinase ABL1, non-phosphorylated (ABL1, Homo sapiens, UniProt P00519, H396P)).
SNRK (Homo sapiens, UniProt Q9NRH2) — remaining binding: 88%.
For MAP2K7 (Homo sapiens, UniProt O14733): remaining binding read 85%.
For MYLK (Homo sapiens, UniProt Q15746): remaining binding read 73%.
It gave 100% for remaining binding (KIT (Homo sapiens, UniProt P10721, V559D/V654A)).
PIK3C2B (Homo sapiens, UniProt O00750) — remaining binding: 72%.

Study 2
SMILES: O=C(c1ccccc1)c1ccc(N2CCOCC2)cc1O
Effect on: enzyme activity
Mode: inhibitor
Concentration: 0.5 µM
Relative to: control
CLK3 (Homo sapiens, UniProt P49761) — remaining activity: 90.2%.
For PAK3 (Homo sapiens, UniProt O75914): remaining activity read 99.5%.
It gave 101% for remaining activity (CLK4 (Homo sapiens, UniProt Q9HAZ1)).
It gave 101% for remaining activity (PNCK (Homo sapiens, UniProt Q6P2M8)).
It gave 103% for remaining activity (DCLK2 (Homo sapiens, UniProt Q8N568)).
For AKT2 (Homo sapiens, UniProt P31751): remaining activity read 97.9%.
The remaining activity was 99.3% (MAPK11 (Homo sapiens, UniProt Q15759)).
MINK1 (Homo sapiens, UniProt Q8N4C8) — remaining activity: 91.1%.
The remaining activity was 97.8% (Cyclin-dependent kinase 9, with cyclin K (CDK9, Homo sapiens, UniProt P50750)).
For MAPK1 (Homo sapiens, UniProt P28482): remaining activity read 96.7%.
For MARK4 (Homo sapiens, UniProt Q96L34): remaining activity read 100%.
Cyclin-dependent kinase 1, with cyclin A (CDK1, Homo sapiens, UniProt P06493) — remaining activity: 103%.
For NEK3 (Homo sapiens, UniProt P51956): remaining activity read 95.6%.

Study 3
Cell line: A-375
Concentration: 100 µM
Time: 18 h
With `CC(=O)NCCCS(=O)(=O)O` the viability was 93.5%.
`Cc1cccn2c(=O)c(-c3nnn[nH]3)cnc12` has a viability of 97.7%.
For `O=C(NC1CCN(CCCCC2(C(=O)NCC(F)(F)F)c3ccccc3-c3ccccc32)CC1)c1ccccc1-c1ccc(C(F)(F)F)cc1`, the viability was 11%.
`O=C[C@H](O)[C@@H](O)[C@H](O)[C@H](O)CO` has a viability of 92.6%.
`CCOC(=O)n1ccn(C)c1=S` gave a viability of 102%.
With `CNC(=C[N+](=O)[O-])NCCSCc1csc(CN(C)C)n1` the viability was 113%.
`O=C(/C=C/c1ccc(O)cc1)c1ccc(O)cc1O` gave a viability of 75.2%.
The viability of `CCCCC(=O)O[C@]1(C(=O)CO)[C@@H](C)C[C@H]2[C@@H]3CCC4=CC(=O)C=C[C@]4(C)[C@@]3(F)[C@@H](O)C[C@@]21C` is reported as 8.72%.
For `CCOc1cc(CC(=O)N[C@@H](CC(C)C)c2ccccc2N2CCCCC2)ccc1C(=O)O`, the viability was 73.8%.
`Clc1cccc(Cl)c1N=C1NCCN1` gave a viability of 104%.
With `O=C(OC[C@H]1O[C@@H](OC(=O)c2cc(O)c(O)c(OC(=O)c3cc(O)c(O)c(O)c3)c2)[C@H](OC(=O)c2cc(O)c(O)c(OC(=O)c3cc(O)c(O)c(O)c3)c2)[C@@H](OC(=O)c2cc(O)c(O)c(OC(=O)c3cc(O)c(O)c(O)c3)c2)[C@@H]1OC(=O)c1cc(O)c(O)c(OC(=O)c2cc(O)c(O)c(O)c2)c1)c1cc(O)c(O)c(OC(=O)c2cc(O)c(O)c(O)c2)c1` the viability was 81.2%.

Study 4
Structure (SMILES): O=C(Nc1ccccc1)Nc1cccc(Oc2ccc3nccn3n2)c1
Concentration: 1 µM
It gave 100% for remaining binding (WEE1 (Homo sapiens, UniProt P30291); competitive binding panel; relative to: vehicle).
For BRAF (Homo sapiens, UniProt P15056); competitive binding panel; relative to: vehicle: remaining binding read 76%.
The remaining binding was 100% (VRK2 (Homo sapiens, UniProt Q86Y07); competitive binding panel; relative to: vehicle).
The remaining binding was 100% (MAPK9 (Homo sapiens, UniProt P45984); competitive binding; JNK2).
It gave 100% for remaining binding (CSNK1G1 (Homo sapiens, UniProt Q9HCP0); competitive binding panel; relative to: vehicle).
It gave 100% for remaining binding (CDKL3 (Homo sapiens, UniProt Q8IVW4); competitive binding panel; relative to: vehicle).
NEK9 (Homo sapiens, UniProt Q8TD19); competitive binding panel; relative to: vehicle — remaining binding: 64%.
For MYLK3 (Homo sapiens, UniProt Q32MK0); competitive binding; MLCK: remaining binding read 93%.
The remaining binding was 92% (NEK3 (Homo sapiens, UniProt P51956); competitive binding panel; relative to: vehicle).
The remaining binding was 93% (TNIK (Homo sapiens, UniProt Q9UKE5); competitive binding panel; relative to: vehicle).
For FGFR3 (Homo sapiens, UniProt P22607, G697C); competitive binding panel; relative to: vehicle: remaining binding read 91%.
It gave 67% for remaining binding (PLK1 (Homo sapiens, UniProt P53350); competitive binding panel; relative to: vehicle).
For PIK3CG (Homo sapiens, UniProt P48736); competitive binding panel; relative to: vehicle: remaining binding read 94%.
The remaining binding was 100% (IGF1R (Homo sapiens, UniProt P08069); competitive binding panel; relative to: vehicle).
It gave 100% for remaining binding (NEK6 (Homo sapiens, UniProt Q9HC98); competitive binding panel; relative to: vehicle).
